{"data": "Results gathered from unrelated publications", "note": "Parts stem from different laboratories: compare values within a part only.", "sequence of UniProt P27037 (whole entry, looked up)": "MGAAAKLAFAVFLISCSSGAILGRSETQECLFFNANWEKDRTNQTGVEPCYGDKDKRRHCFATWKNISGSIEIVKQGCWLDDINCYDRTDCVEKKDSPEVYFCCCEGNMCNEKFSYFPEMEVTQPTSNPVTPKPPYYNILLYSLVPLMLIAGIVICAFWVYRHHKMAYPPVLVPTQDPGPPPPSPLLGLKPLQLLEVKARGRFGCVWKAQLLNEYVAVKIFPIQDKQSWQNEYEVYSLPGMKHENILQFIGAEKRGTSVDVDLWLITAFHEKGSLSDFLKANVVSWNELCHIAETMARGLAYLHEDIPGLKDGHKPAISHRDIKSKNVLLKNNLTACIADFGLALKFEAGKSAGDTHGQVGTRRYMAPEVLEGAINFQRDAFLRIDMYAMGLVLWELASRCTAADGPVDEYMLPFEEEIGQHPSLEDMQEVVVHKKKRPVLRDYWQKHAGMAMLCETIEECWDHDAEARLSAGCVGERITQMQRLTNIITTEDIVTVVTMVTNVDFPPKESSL", "sequence of UniProt P51451 (whole entry, looked up)": "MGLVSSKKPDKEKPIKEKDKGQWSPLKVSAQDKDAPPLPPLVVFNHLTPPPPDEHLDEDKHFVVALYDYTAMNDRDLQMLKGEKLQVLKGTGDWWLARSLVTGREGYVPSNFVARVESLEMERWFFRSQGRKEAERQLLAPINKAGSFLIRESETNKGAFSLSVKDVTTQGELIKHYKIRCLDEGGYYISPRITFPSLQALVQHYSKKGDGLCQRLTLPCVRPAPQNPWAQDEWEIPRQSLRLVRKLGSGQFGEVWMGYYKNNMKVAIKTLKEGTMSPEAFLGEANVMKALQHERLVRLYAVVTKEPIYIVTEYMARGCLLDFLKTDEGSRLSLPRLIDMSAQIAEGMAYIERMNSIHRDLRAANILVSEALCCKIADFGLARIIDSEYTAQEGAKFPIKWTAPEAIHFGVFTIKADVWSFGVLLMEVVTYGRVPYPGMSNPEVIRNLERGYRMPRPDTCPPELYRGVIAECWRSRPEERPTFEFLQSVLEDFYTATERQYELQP", "sequence of UniProt Q8TDX7 (whole entry, looked up)": "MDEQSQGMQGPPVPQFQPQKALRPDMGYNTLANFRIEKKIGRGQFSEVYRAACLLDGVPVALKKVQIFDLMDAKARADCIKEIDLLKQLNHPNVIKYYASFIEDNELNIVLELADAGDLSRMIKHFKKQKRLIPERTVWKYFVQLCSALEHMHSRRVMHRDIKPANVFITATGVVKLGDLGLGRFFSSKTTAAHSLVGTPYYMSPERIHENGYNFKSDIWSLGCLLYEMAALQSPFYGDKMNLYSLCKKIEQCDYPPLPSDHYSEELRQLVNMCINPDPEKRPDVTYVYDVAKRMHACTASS", "sequence of UniProt Q9Y616 (whole entry, looked up)": "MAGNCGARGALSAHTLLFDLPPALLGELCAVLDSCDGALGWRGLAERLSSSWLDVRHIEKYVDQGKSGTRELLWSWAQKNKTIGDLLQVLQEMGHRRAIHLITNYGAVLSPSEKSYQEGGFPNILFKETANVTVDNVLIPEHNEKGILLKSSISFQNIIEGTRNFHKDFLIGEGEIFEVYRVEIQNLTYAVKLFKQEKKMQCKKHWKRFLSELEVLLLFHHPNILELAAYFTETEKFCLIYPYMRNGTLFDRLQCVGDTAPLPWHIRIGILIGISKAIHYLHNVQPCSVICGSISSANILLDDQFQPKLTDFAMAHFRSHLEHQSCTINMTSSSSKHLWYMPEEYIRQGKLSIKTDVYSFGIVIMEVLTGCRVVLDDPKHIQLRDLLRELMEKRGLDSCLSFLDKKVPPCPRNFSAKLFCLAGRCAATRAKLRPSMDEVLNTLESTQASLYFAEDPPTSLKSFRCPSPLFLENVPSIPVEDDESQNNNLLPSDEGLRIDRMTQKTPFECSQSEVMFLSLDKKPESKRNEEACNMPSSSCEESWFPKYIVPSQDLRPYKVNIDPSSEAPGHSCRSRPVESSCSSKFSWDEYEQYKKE", "sequence of UniProt Q16832 (whole entry, looked up)": "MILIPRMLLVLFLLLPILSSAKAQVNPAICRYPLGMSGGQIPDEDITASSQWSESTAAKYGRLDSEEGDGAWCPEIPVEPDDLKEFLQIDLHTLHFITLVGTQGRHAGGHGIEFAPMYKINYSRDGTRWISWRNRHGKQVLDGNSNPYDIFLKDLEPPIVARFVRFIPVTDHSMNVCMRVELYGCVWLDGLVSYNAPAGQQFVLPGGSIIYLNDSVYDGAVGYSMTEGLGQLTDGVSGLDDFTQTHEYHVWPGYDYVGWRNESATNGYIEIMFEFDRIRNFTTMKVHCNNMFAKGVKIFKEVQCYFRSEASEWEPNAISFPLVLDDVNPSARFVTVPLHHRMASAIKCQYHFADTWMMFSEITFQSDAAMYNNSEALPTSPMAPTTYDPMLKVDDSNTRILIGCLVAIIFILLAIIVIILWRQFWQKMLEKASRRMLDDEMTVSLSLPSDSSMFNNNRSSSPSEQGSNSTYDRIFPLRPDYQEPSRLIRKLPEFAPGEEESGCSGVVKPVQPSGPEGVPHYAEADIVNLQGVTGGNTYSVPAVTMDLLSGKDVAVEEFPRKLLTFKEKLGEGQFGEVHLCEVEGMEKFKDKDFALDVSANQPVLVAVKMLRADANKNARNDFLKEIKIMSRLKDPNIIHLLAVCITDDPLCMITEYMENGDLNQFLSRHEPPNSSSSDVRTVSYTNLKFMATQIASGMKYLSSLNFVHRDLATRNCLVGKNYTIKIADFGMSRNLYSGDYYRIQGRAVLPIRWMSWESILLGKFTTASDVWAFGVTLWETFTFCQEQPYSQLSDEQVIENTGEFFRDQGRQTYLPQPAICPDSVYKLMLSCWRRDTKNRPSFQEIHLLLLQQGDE", "sequence of UniProt P42684 (whole entry, looked up)": "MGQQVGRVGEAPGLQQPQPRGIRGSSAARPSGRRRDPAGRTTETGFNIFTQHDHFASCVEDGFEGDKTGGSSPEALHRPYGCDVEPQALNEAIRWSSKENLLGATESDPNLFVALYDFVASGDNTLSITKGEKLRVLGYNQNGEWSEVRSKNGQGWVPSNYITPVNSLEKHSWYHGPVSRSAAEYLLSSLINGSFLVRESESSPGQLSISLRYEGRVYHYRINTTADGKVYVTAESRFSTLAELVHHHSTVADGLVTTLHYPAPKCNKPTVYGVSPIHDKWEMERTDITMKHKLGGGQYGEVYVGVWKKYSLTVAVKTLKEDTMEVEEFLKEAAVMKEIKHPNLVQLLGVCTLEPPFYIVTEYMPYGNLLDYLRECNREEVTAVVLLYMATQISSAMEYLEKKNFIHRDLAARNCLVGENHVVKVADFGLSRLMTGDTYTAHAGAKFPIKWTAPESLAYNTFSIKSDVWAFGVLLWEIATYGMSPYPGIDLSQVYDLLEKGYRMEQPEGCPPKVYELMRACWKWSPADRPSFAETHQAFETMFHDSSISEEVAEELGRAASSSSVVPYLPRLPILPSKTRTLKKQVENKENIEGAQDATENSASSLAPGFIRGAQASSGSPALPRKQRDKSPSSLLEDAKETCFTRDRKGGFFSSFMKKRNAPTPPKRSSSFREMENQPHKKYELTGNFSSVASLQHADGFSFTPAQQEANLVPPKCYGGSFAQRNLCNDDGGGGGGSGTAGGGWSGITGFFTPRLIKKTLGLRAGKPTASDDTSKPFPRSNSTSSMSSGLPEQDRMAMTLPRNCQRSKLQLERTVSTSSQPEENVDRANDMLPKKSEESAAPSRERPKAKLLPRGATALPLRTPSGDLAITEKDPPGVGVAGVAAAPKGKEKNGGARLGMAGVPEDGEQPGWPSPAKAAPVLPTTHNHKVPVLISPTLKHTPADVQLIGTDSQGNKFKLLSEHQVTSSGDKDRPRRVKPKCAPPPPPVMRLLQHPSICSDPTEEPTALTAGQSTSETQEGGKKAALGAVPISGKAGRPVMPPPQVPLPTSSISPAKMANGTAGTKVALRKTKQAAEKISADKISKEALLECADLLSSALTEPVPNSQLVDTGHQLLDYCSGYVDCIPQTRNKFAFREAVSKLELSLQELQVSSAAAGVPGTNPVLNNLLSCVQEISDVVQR"}
{"data": "Sample 1", "Compound": "CCc1ccccc1C(=O)Nc1n[nH]c2c(C)c(F)c(C3C(C#N)=C(C)N(C)C(C)=C3C#N)cc12", "technique": "competition with immobilised ligand", "tested at": "1 µM"}
{"target": "Macrophage colony-stimulating factor 1 receptor, autoinhibited (CSF1R, Homo sapiens, UniProt P07333)", "effect on": "cell-free assay", "remaining binding [%]": 100}
{"target": "Myosin-IIIb (MYO3B, Homo sapiens, UniProt Q8WXR4)", "effect on": "binding", "remaining binding [%]": 77}
{"target": "FLT3 (Homo sapiens, UniProt P36888, K663Q)", "effect on": "cell-free assay", "remaining binding [%]": 13}
{"target": "DCLK2 (Homo sapiens, UniProt Q8N568)", "effect on": "cell-free assay", "remaining binding [%]": 64}
{"target": "NEK7 (Homo sapiens, UniProt Q8TDX7)", "effect on": "cell-free assay", "remaining binding [%]": 83}
{"target": "ROCK2 (Homo sapiens, UniProt O75116)", "effect on": "cell-free assay", "remaining binding [%]": 100}
{"target": "EPHA1 (Homo sapiens, UniProt P21709)", "effect on": "cell-free assay", "remaining binding [%]": 60}
{"target": "KDR (Homo sapiens, UniProt P35968)", "effect on": "cell-free assay", "remaining binding [%]": 88}
{"target": "FER (Homo sapiens, UniProt P16591)", "effect on": "cell-free assay", "remaining binding [%]": 90}
{"target": "FLT3 (Homo sapiens, UniProt P36888, ITD)", "effect on": "cell-free assay", "remaining binding [%]": 11}
{"target": "ACVR2A (Homo sapiens, UniProt P27037)", "effect on": "cell-free assay", "remaining binding [%]": 100}
{"target": "FLT3 (Homo sapiens, UniProt P36888)", "effect on": "cell-free assay", "remaining binding [%]": 16}
{"target": "EGFR (Homo sapiens, UniProt P00533, L858R/T790M)", "effect on": "cell-free assay", "remaining binding [%]": 97}
{"target": "DDR2 (Homo sapiens, UniProt Q16832)", "effect on": "cell-free assay", "remaining binding [%]": 100}
{"target": "ABL2 (Homo sapiens, UniProt P42684)", "effect on": "cell-free assay", "remaining binding [%]": 92}
{"target": "IRAK3 (Homo sapiens, UniProt Q9Y616)", "effect on": "cell-free assay", "remaining binding [%]": 98}
{"target": "DAPK3 (Homo sapiens, UniProt O43293)", "effect on": "cell-free assay", "remaining binding [%]": 71}
{"target": "EGFR (Homo sapiens, UniProt P00533, del747-752/P753S)", "effect on": "cell-free assay", "remaining binding [%]": 79}
{"target": "FLT3 (Homo sapiens, UniProt P36888, D835Y)", "effect on": "cell-free assay", "remaining binding [%]": 2.5}
{"target": "GAK (Homo sapiens, UniProt O14976)", "effect on": "cell-free assay", "remaining binding [%]": 82}
{"target": "Tyrosine-protein kinase ABL1, phosphorylated (ABL1, Homo sapiens, UniProt P00519, Y253F)", "effect on": "cell-free assay", "remaining binding [%]": 85}
{"target": "LTK (Homo sapiens, UniProt P29376)", "effect on": "cell-free assay", "remaining binding [%]": 94}
{"target": "RIPK4 (Homo sapiens, UniProt P57078)", "effect on": "cell-free assay", "remaining binding [%]": 92}
{"target": "LYN (Homo sapiens, UniProt P07948)", "effect on": "cell-free assay", "remaining binding [%]": 86}
{"target": "BLK (Homo sapiens, UniProt P51451)", "effect on": "cell-free assay", "remaining binding [%]": 100}
{"data": "Sample 2", "cell line": "mouse MPNST tumor cells", "technique": "high-content nuclear imaging", "measured": "cell number", "tested at": "10 µM", "time": "12 h", "setting": "mean of 2 replicates", "relative to": "plate mean", "direction": "higher = more cells"}
{"Structure (SMILES)": "OC(c1cc(C(F)(F)F)nc2c(C(F)(F)F)cccc12)C1CCCCN1 (stereo not shown)", "nuclei count [z-score]": -6.17}
{"Structure (SMILES)": "CN(C)C(=O)COC(=O)Cc1ccc(OC(=O)c2ccc(NC(=N)N)cc2)cc1", "nuclei count [z-score]": 1.33}
{"Structure (SMILES)": "C[n+]1ccccc1/C=N/O", "nuclei count [z-score]": 1.35}
{"Structure (SMILES)": "c1ccc(C2CN3CCSC3=N2)cc1 (stereo not shown)", "nuclei count [z-score]": 1.47}
{"Structure (SMILES)": "COc1cc(C(=O)NC2CC3CCCC(C2)N3CC(=O)Nc2ccccc2Cl)cc(OC)c1OC (stereo not shown)", "nuclei count [z-score]": 2.74}
{"Structure (SMILES)": "C/C(=C(\\CCOP(=O)(O)O)SC(=O)c1ccccc1)N(C=O)Cc1cnc(C)nc1N", "nuclei count [z-score]": 0.6}
{"Structure (SMILES)": "Nc1nc(Cl)nc2c1ncn2[C@@H]1O[C@H](CO)[C@@H](O)[C@H]1O", "nuclei count [z-score]": 0.697}
{"Structure (SMILES)": "COc1ccc(Cl)cc1NC(=O)Nc1cc(C)nc2ccccc12", "nuclei count [z-score]": -0.429}
{"Structure (SMILES)": "Cc1cc2c(cc1C1(c3ccc(C(=O)O)cn3)CC1)C(C)(C)CCC2(C)C", "nuclei count [z-score]": 1.27}
{"Structure (SMILES)": "Cc1nc(-c2cnn(C)c2-c2ccc(C(F)(F)F)cn2)c2c(N3CCC3)ncnn12", "nuclei count [z-score]": 0.353}
{"Structure (SMILES)": "COc1ccc(C(=O)Nc2sc3c(c2C(N)=O)CCCC3)cc1OC", "nuclei count [z-score]": 2.22}
{"data": "Sample 3", "cell line": "HaCaT", "tested at": "100 µM", "time": "36 h"}
{"SMILES": "COCCCC/C(=N\\OCCN)c1ccc(C(F)(F)F)cc1", "viability": "4.94%"}
{"SMILES": "CS(=O)(=O)Nc1ccc([N+](=O)[O-])cc1Oc1ccccc1", "viability": "92.8%"}
{"SMILES": "OC(CCCN1CCCCC1)(c1ccccc1)c1ccccc1", "viability": "72.6%"}
{"SMILES": "Nc1nc(N)c2nc(-c3ccccc3)c(N)nc2n1", "viability": "31%"}
{"SMILES": "CCC(=O)OCC(=O)[C@@]1(OC(=O)CC)[C@@H](C)C[C@H]2[C@@H]3CCC4=CC(=O)C=C[C@]4(C)[C@@]3(Cl)[C@@H](O)C[C@@]21C", "viability": "79.6%"}
{"SMILES": "CO[C@H]1O[C@@H]2O[C@@]3(C)CC[C@H]4[C@H](C)CC[C@@H]([C@H]1C)[C@@]24OO3", "viability": "75.9%"}
{"SMILES": "CCCCNc1ccc(C(=O)OCCN(C)C)cc1", "viability": "65.8%"}
{"SMILES": "Cc1ccc(Cl)c(Nc2ccccc2C(=O)O)c1Cl", "viability": "36.3%"}
{"SMILES": "O=C(CS(=O)(=O)Cc1ccccc1)N1CCOCC1", "viability": "100%"}
{"SMILES": "C[C@]12CC[C@@H]3c4ccc(OC(=O)c5ccccc5)cc4CC[C@H]3[C@@H]1CC[C@@H]2O", "viability": "4.37%"}
{"SMILES": "O=C(O)CCCCCCCC(=O)O", "viability": "87.5%"}
{"SMILES": "CC(=O)O[C@H]1Cc2ccccc2N(C(N)=O)c2ccccc21", "viability": "96.1%"}
{"data": "Sample 4", "target": "Serine/threonine-protein kinase SIK2 (SIK2, Homo sapiens, UniProt Q9H0K1)", "effect on": "enzyme activity", "action": "inhibitor", "tested at": "0.5 µM", "relative to": "control", "sequence of UniProt Q9H0K1 (whole entry, looked up)": "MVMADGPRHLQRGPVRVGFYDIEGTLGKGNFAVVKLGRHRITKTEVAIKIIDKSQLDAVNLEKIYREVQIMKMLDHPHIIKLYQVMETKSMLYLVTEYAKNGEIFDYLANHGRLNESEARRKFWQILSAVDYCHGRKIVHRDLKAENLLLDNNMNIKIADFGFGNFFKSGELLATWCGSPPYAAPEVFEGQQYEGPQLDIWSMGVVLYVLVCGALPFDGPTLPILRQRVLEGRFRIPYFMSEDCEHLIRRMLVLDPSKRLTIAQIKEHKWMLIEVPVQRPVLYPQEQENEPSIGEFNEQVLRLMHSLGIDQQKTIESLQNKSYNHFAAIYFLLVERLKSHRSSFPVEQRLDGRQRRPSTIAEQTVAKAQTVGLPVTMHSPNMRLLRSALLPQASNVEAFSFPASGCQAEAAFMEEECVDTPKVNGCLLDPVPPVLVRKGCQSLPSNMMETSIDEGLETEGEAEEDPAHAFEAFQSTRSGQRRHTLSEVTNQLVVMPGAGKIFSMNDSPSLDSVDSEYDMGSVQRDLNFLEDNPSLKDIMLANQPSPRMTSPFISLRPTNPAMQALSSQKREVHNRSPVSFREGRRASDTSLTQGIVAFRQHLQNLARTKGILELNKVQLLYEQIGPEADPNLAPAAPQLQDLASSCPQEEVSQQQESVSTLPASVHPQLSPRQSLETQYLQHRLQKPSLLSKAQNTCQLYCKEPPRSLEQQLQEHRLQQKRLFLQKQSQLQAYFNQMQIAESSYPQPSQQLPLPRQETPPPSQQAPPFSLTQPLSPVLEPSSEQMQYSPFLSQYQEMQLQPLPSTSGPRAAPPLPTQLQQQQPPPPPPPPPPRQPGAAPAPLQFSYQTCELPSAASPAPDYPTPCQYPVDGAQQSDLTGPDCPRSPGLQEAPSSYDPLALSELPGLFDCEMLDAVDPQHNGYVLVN"}
{"SMILES": "N#C/C(=C(/N)SC1C=CC=CC1)c1cccc(C(O)c2ccncc2)c1 (stereo not shown)", "remaining activity [%]": 105}
{"SMILES": "c1cc(-c2cnn3cc(-c4ccc(OCCN5CCCCC5)cc4)cnc23)ccn1", "remaining activity [%]": 46.4}
{"SMILES": "CC(C)N(CCC(=O)c1ccc2ccccc2c1)Cc1ccccc1", "remaining activity [%]": 103}
{"SMILES": "O=C(c1ccccc1)c1ccc(N2CCOCC2)cc1O", "remaining activity [%]": 100}
{"SMILES": "FC(F)(F)c1ccc(/C=C/c2nc(COc3ccc(CCCCn4ccnn4)cc3)co2)cc1", "remaining activity [%]": 103}
{"SMILES": "CC(C)(C)c1nc2c3cc[nH]c(=O)c3c3cc(F)ccc3c2[nH]1", "remaining activity [%]": 60.2}
{"SMILES": "CC(C)n1cnc2c(Nc3cccc(Cl)c3)nc(NCCO)nc21", "remaining activity [%]": 107}
{"SMILES": "O=C1c2ccccc2-c2nc3nnnn3nc21", "remaining activity [%]": 106}
{"SMILES": "COc1cc2c(N3CCN(C(=O)Nc4ccc(OC(C)C)cc4)CC3)ncnc2cc1OCCCN1CCCCC1", "remaining activity [%]": 98.9}
{"SMILES": "COc1cc2c(Nc3ccc(Br)cc3F)ncnc2cc1OCC1CCN(C)CC1", "remaining activity [%]": 17.6}
{"SMILES": "CNc1cc2c(Nc3cccc(Br)c3)ncnc2cn1", "remaining activity [%]": 98.3}
{"SMILES": "O=C1NC(=O)/C(=C/c2ccc3c(c2)OC(F)(F)O3)S1", "remaining activity [%]": 101}
{"SMILES": "O=C(O)/C=C/c1cc(Br)c(Br)c(Br)c1Br", "remaining activity [%]": 107}
{"note": "For quick reference, copied from above (sample 1):"}
{"target": "FER (Homo sapiens, UniProt P16591)", "effect on": "cell-free assay", "remaining binding [%]": 90}
{"target": "ACVR2A (Homo sapiens, UniProt P27037)", "effect on": "cell-free assay", "remaining binding [%]": 100}
{"target": "EGFR (Homo sapiens, UniProt P00533, L858R/T790M)", "effect on": "cell-free assay", "remaining binding [%]": 97}
{"target": "DDR2 (Homo sapiens, UniProt Q16832)", "effect on": "cell-free assay", "remaining binding [%]": 100}
{"target": "Myosin-IIIb (MYO3B, Homo sapiens, UniProt Q8WXR4)", "effect on": "binding", "remaining binding [%]": 77}
{"target": "FLT3 (Homo sapiens, UniProt P36888, ITD)", "effect on": "cell-free assay", "remaining binding [%]": 11}
{"target": "KDR (Homo sapiens, UniProt P35968)", "effect on": "cell-free assay", "remaining binding [%]": 88}
{"target": "EGFR (Homo sapiens, UniProt P00533, del747-752/P753S)", "effect on": "cell-free assay", "remaining binding [%]": 79}
